Experimental data from different studies.
Numbered parts are unrelated; each lists some results of a single study. Substitutions count along the parent as printed.

Sample 1
Target: Sal-like protein 4, full length isoform A (SALL4, Homo sapiens, UniProt Q9UJQ4, residues 1-1053)
UniProt Q9UJQ4, sequence (whole entry, looked up): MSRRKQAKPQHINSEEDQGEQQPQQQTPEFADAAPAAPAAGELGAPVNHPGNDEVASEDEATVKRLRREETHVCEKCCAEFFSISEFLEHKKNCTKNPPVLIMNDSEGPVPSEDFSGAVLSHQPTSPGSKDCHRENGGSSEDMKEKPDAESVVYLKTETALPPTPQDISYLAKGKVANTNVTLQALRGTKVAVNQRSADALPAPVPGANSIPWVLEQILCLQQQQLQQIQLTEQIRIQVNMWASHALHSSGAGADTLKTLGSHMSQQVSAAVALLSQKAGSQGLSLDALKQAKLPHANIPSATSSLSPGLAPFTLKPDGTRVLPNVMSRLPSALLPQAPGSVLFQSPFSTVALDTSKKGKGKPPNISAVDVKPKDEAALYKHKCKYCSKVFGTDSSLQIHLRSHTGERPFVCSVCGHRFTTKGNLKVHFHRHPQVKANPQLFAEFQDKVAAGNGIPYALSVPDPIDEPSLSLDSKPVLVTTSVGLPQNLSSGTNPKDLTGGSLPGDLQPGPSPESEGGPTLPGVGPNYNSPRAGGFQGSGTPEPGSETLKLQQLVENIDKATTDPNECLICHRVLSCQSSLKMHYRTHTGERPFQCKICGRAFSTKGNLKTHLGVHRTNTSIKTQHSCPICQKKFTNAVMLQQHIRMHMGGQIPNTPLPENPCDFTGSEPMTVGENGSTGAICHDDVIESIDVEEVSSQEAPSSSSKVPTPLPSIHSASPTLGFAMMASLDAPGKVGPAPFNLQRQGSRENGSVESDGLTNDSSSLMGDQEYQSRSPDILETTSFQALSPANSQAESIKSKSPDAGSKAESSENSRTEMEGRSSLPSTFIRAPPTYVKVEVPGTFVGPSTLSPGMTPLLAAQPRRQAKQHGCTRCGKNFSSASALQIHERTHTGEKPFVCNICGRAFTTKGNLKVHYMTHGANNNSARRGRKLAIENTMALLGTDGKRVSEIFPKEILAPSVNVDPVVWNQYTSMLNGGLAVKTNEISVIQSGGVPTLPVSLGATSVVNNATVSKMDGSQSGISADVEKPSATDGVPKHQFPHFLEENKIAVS
Technique: universal PBM
Form: double-stranded DNA, one strand shown
Matrix: in vitro
Tested at: 600 nM
Notes: 8-mer, flanks averaged, mean of replicates
Direction: higher = stronger binding
For `CTAGCGGA`, the E-score was -0.317.
`ACAAACCA` gave an E-score of -0.0599.
`GGCGTACC` gave an E-score of -0.281.
With `GCTCCCAA` the E-score was -0.192.
`ATGATCCC` gave an E-score of 0.00518.
The E-score of `ACCAACCA` is reported as -0.0467.
`GACGGAAA` gave an E-score of 0.0172.
`ACGGCGTG` has an E-score of -0.165.
For `CCACTGCC`, the E-score was -0.29.
`GAGCTTAA` has an E-score of 0.0118.
`ACTATCAG` gave an E-score of 0.0273.
With `ACGCCATA` the E-score was 0.0533.
For `ACTCTATG`, the E-score was -0.074.
`GGTCCAAC` has an E-score of -0.279.

Sample 2
Target: RNA binding protein fox-1 homolog 2, RRM domain, GST-SBP tag (RBFOX2, Homo sapiens, UniProt O43251-10, residues 100-194)
Technique: RNA Bind-n-Seq
Form: RNA
Matrix: in vitro
Tested at: 365 nM
Notes: natural RNA segment, single round, ends assumed
Relative to: no-protein control
Direction: higher = stronger binding
Residues (chain): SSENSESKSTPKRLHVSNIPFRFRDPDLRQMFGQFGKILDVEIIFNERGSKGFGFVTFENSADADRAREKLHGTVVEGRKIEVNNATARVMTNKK
Under “RBNS enrichment (R)”, `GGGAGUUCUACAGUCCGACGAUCUUUUCUGUCUCCCAACCAAGGAAUUCCUCUGCUCAGGCUCCUGUUGCCCAGGAUAGCUCUCUUCUAUAGCCAGGAUGUGGAGCUUAAGGAGACUCCAAUGUUUACUUUCUUGGAAUUCUCGGGUGCCAA` is recorded as 0.442.
`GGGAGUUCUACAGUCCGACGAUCAGUUAGAGCACUGUUUAGCUCCUUUGUCUGUGUGAUAGACCUAAGAACUGUAUUAGUGUUGUACCAGCCUAUUAACCUCUUGUCUGUGCACAGCUUCAAAUGUUACCGUCUGGAAUUCUCGGGUGCCAA` — result for “RBNS enrichment (R)”: 0.311.
Under “RBNS enrichment (R)”, `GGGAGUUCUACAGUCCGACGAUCUCUUCCAAAGCAGCAAGUCAAUCAAUACAAUAAUGAUAUUUGGGGAGGGGUGGGAGCCCUUAAGAACUAUUGAUGUGGCCUUAAAUUACUGUCAUUUAUUAUCCUAAAGAUGGAAUUCUCGGGUGCCAA` is recorded as 0.499.
For `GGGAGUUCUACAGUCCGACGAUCUUUGUUCCUUCUGUCCUUCCAACACAGAGACUGUUAGAGAUGAAAGUUUGGACGGUACUAAAGUCACCUCUGACUUCCUUCUGGGUUCCCCUACUACAGUUCUUGCUUCCUGGAAUUCUCGGGUGCCAA`, “RBNS enrichment (R)” read 0.362.
Under “RBNS enrichment (R)”, `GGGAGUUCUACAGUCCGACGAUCGUUUUGCCAUGAACUGUGGCCCCAGUGUAUAGUGUUUCAGUGGGGGAGAAGCUGAAAGACCAAGACUCUUCCCAAGUUAGCUUGUCUCCUCUCCUGUCACCCUAAGAGCCUGGAAUUCUCGGGUGCCAA` is recorded as 1.04.
Under “RBNS enrichment (R)”, `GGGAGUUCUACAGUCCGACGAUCAUUUCCAAAAAAUGGCUAGAGGGAGAGUCCAGUUUCUGAGCUCUGUACCCAAAUUAAAAUCCUGAUGUUCAGGUUAAUCCAAGCAACACGCAUUGGGUUUAAAACCAGCAUGGAAUUCUCGGGUGCCAA` is recorded as 2.41.
`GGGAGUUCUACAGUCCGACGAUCCACAGUCUGGAGGCGGCUGCUUUUGUACCUUCCUGCCUGCUACUAAUUCAGGGUCUCAUUUGGAACAUUUUUCCUUUGGGUAGUGGUCAGGAACUGGUGUAAGUCCUCCAUGGAAUUCUCGGGUGCCAA`: “RBNS enrichment (R)” 0.537.
Under “RBNS enrichment (R)”, `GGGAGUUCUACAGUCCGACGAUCAUAGCUCUGUAAAACUUGUCCUGUGAGCGAGGCAGGUGCUAUCUGAGAGAGGGAUCUUGCAGCUGUCAUUUCUGGUCUUGUAGCCUUCAUCAGAGGCUGUUUUCCAUGAUUGGAAUUCUCGGGUGCCAA` is recorded as 0.518.
`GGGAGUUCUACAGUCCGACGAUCGGGUGGGAUUCCACUCGUGUGUUUCUAUUUUUUGAAAAGCAGACAUUUUAAAAAAUGGUCACGUUUGGUGCUUCUCAGAUUUCUGAGGAAAUUGCUUUGUAUUGUAUAUUUGGAAUUCUCGGGUGCCAA`: “RBNS enrichment (R)” 1.94.
Under “RBNS enrichment (R)”, `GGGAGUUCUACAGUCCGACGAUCACUUCCAACCAGCCGCUGUGAGGAUUUAGUGAGCUAACGCAUGUAAGCAUUUAGCAAGGUGCCUGGCACAUAGUAAGCACUCAAUAAAUGGUAGUUUUUUUGUUCUUUUAUGGAAUUCUCGGGUGCCAA` is recorded as 13.4.
`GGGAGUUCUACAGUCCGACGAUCAUACUUGUUUUCCCCAGAUGAGGCACUUGGUGAAUAAAGGAUGCUGGGAAAACUGUGUGUUAUAUUCUGUUGCAGGUAGUCUGGCUGUAUUUGGAAAGUUGCAAAGAAGGUGGAAUUCUCGGGUGCCAA` — result for “RBNS enrichment (R)”: 1.42.
`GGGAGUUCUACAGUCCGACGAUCGACUAAGACUGGUCUUCUCAGAUGCCCUGCUUAAAUCAGGGGCACUUCAGGCUCCACAGGCGUCAUGUUGGACUGAGACCUAACUCACUGGACUCAGAGGAGGAAUCGUGUGGAAUUCUCGGGUGCCAA`: “RBNS enrichment (R)” 0.378.

Sample 3
Target: CCNA1, cyclin fold, Cln2 fusion (human)
Technique: yeast growth competition, sequencing
Matrix: yeast
Notes: weak parent motif
Relative to: not given
Direction: higher = stronger binding
Starting sequence: SAMHD1 docking peptide (human); ASKSRVQLFKDDP; partner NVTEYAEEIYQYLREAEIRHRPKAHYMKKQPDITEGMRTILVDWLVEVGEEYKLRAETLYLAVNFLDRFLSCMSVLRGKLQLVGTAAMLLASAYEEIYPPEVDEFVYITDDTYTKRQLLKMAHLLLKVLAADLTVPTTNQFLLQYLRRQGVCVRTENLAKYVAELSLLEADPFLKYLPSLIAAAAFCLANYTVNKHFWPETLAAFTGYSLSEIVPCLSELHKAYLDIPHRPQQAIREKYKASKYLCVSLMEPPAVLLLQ
`S4A`: “normalised enrichment score” 0.852.
For `D11Q`, “normalised enrichment score” read -0.073.
`V6T` — result for “normalised enrichment score”: 0.51.
`V6F`: “normalised enrichment score” 0.174.
Under “normalised enrichment score”, `S2E` is recorded as 0.178.
`D11Y` — result for “normalised enrichment score”: 0.496.
Under “normalised enrichment score”, `F9I` is recorded as 0.743.
`V6G`: “normalised enrichment score” 0.17.
For `F9E`, “normalised enrichment score” read 0.252.
`S4N`: “normalised enrichment score” 0.0195.
For `V6I`, “normalised enrichment score” read -0.264.
Under “normalised enrichment score”, `V6Q` is recorded as -0.194.
Under “normalised enrichment score”, `L8I` is recorded as 0.13.

Sample 4
Substance: PhoQ, residues 284 288 289 292 302 303 SSLVEF
Technique: Sort-seq
Refers to: YFP reporter
Matrix: E. coli
Notes: PhoQ-PhoP variant library
With: 10 µM Mg2+
Relative to: high Mg2+ state
Direction: higher = stronger signaling
PhoP, residues 12 14 15 18 19 HHYTI (Escherichia coli, UniProt P23836) — fold induction: 1.59.
It gave 17.8 for fold induction (PhoP, residues 12 14 15 18 19 SFCSL (Escherichia coli, UniProt P23836)).
It gave 4.75 for fold induction (PhoP, residues 12 14 15 18 19 AYFRS (Escherichia coli, UniProt P23836)).

Excerpt of the above (sample 1):
For `CTAGCGGA`, the E-score was -0.317.
The E-score of `ACCAACCA` is reported as -0.0467.
`ATGATCCC` gave an E-score of 0.00518.
`ACGGCGTG` has an E-score of -0.165.
`GGTCCAAC` has an E-score of -0.279.
`GAGCTTAA` has an E-score of 0.0118.
